Literature values that unrelated publications cite.
Each numbered part shows a few of the values that one paper quotes.
UniProt P18031, sequence (whole entry, looked up): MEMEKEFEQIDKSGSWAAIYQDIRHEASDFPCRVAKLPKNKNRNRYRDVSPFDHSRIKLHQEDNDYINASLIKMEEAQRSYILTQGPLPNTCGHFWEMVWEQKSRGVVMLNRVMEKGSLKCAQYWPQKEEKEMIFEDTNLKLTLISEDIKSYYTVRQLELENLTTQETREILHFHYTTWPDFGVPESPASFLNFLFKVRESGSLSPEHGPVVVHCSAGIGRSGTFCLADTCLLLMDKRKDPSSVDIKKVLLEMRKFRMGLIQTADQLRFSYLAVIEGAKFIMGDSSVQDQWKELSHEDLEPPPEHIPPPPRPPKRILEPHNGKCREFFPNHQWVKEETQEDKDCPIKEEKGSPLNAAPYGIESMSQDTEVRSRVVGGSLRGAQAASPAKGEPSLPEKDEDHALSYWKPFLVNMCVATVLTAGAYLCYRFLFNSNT

Series 1 — cell line: MCF7; technique: microarray; concentration: concentration not given; reference: DMSO; quantity: log2 fold change
SMILES: OCCN1CCN(CCC=C2c3ccccc3Sc3ccc(C(F)(F)F)cc32)CC1
measured: WDR45 mRNA: 1.15
measured: USO1 mRNA: 1.05
measured: TSFM mRNA: 0.71

Other studies, line by line
NC(=O)OC[C@H](N)Cc1ccccc1 — Ki (norepinephrine transporter): 3.7 µM
CCOC(=O)[C@@H]1CSCC(=O)N[C@H](CC)C(=O)N(C)[C@@H](C)C(=O)N[C@@H](CC(C)C)C(=O)N(C)[C@H](C)C(=O)N(CC(C)C)CC(=O)N[C@@H](CC(C)C)C(=O)N(C)[C@H](C)C(=O)N[C@@H](CC(C)C)C(=O)N1C — log permeability (Pe) (MDCK): -6.07
Cc1ccc(-c2cc3c(c(OCC4CCCN(C)C4)c2)OCCN(C(=O)Cc2c(C)noc2C)C3)s1 (centres unmarked) — EC50 (Leishmania mexicana; intracellular amastigotes; original screening sample): 23 nM
C=C(C)[C@@H]1CC[C@@H](C)[C@@H]2CCC(C)=C[C@@H]21 — IC50 (Tyrosine-protein phosphatase non-receptor type 1 (PTPN1, Homo sapiens, UniProt P18031); enzyme activity, inhibitor): ~50 µM
CCC(C)(c1ccc(O)cc1)c1ccc(O)cc1 — Kd (estrogen receptor beta; binding): 79.8 nM

Repeated from above (other studies, line by line):
CCC(C)(c1ccc(O)cc1)c1ccc(O)cc1 — Kd (estrogen receptor beta; binding): 79.8 nM
